Measured values from different studies.
Protocols differ between the studies behind these lines.
Target: Serine/threonine-protein kinase 10 (STK10, Homo sapiens, UniProt O94804)
UniProt O94804, sequence (whole entry, looked up): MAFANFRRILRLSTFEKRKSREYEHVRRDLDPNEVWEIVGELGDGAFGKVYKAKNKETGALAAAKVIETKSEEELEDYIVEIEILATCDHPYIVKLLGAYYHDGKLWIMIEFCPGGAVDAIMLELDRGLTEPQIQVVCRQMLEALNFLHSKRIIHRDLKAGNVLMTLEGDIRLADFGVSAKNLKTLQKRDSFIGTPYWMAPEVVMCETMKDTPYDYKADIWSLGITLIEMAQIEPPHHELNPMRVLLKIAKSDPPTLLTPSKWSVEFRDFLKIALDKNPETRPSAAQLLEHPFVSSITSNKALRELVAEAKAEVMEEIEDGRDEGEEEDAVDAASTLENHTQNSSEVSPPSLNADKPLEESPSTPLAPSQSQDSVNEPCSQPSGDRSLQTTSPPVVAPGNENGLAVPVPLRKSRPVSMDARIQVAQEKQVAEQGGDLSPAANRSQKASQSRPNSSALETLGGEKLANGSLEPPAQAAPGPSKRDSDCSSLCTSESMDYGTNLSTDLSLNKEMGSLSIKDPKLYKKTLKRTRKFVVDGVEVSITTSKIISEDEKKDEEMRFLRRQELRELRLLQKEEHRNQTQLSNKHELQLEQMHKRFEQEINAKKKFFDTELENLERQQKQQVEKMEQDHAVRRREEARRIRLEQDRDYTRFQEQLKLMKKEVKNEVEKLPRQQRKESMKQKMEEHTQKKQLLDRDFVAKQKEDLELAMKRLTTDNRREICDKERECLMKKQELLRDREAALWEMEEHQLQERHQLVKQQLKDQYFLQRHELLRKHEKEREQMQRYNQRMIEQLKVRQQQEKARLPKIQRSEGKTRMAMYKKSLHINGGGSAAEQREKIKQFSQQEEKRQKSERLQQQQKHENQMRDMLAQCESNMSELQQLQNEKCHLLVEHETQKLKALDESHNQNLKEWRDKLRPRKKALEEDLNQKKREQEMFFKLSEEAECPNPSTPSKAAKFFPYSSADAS

COc1cc(F)ccc1-c1ncnc(Nc2cccc(C[S@](C)(=N)=O)c2)n1  remaining activity (kinase activity; 10 µM, added: 10 µM ATP): 37%
C[C@@H](c1ccc(-n2cnc3c(N)ncnc32)cc1)N1CCc2nn(C)c(Cc3ccccc3)c2C1=O  remaining binding (KINOMEscan; 0.1 µM; baseline: DMSO control): 23%
C=CC(=O)N1CCC(COCC(=O)N2CCN(c3nc(-c4cnc(N)nc4C(F)F)nc(N4CCOC[C@@H]4C)n3)CC2)CC1  remaining binding (KINOMEscan; 1 µM; baseline: DMSO control): 100%
CCCOc1ccc(OC)c(F)c1C(=O)c1ccc(C(=O)N[C@@H]2CNC[C@H]2NC(=O)c2ccc3[nH]ncc3c2)cc1  remaining activity (enzyme activity; 10 µM): 64%
C=CC(=O)N1CCC(C(=O)NCC(=O)N2CCN(c3nc(-c4cnc(N)nc4C(F)F)nc(N4CCOCC4)n3)CC2)CC1  remaining binding (KINOMEscan; 1 µM): 95%
C1=C/COCc2cc(ccc2OCCN2CCCC2)Nc2nccc(n2)-c2cccc(c2)COC/1  binding (concentration not given, kinase construct LOK; baseline: control): 89%
CCN(CC)c1ccc(C2=NNC(=O)CC2C)cc1[N+](=O)[O-] (stereo not drawn)  remaining activity (enzyme activity, inhibitor; 10 µM; baseline: vehicle): 92%
O=C(NC1CCC1)c1ccc2nc(-c3cccc(NS(=O)(=O)NCCN4CCCCC4)c3)cn2c1  remaining activity (enzyme activity; 10 µM): 100%
Cc1cc(Nc2cc(N3CCN(C)CC3)nc(Sc3ccc(NC(=O)C4CC4)cc3)n2)[nH]n1  remaining activity (kinase activity, KinaseProfiler; 0.03 µM, species human; baseline: control): 97%

For quick reference, copied from above:
COc1cc(F)ccc1-c1ncnc(Nc2cccc(C[S@](C)(=N)=O)c2)n1  remaining activity (kinase activity; 10 µM, added: 10 µM ATP): 37%
